Published values gathered from unrelated publications.
A part holds a random share of what one study measured. Changes are numbered by the printed parent chain.

Block 1 — target: FOSL1, bZIP domain (human); method: DHFR protein complementation; medium: yeast; reference: wild-type JUN-FOS pair; reading: higher = stronger binding; quantity: binding fitness
Notes: single substitutions, most at no-binding floor
Starting sequence: JUN, bZIP domain (human); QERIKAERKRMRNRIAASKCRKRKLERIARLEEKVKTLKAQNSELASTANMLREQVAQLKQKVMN; partner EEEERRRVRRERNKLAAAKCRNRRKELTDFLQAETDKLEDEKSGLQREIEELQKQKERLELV
S47I: -0.407 natural log
R53K: -0.48 natural log
M51Y: -0.438 natural log
M51P: -1.43 natural log
I28D: -0.813 natural log
T48M: -0.358 natural log
L45P: -1.31 natural log
A29R: -0.498 natural log
I28Y: -0.744 natural log
L38I: -1.08 natural log
L45I: -1.48 natural log
A29M: -0.83 natural log
V35S: -1.19 natural log
Q41N: -0.799 natural log
A57S: -0.523 natural log
T48C: -0.571 natural log
R30K: -0.487 natural log
L38S: -1.36 natural log
M51K: -0.364 natural log

Block 2 — target: CCNB1, cyclin fold, Cln2 fusion (human); method: yeast growth competition, sequencing; medium: yeast; notes: weak parent motif; reference: not given; reading: higher = stronger binding; quantity: normalised enrichment score
Starting sequence: RP1L1 docking peptide (human); TLGLGPLSFTLED
TLGAGPLSFTLED [L4A]: -0.0862
TLGLGPLSFTLEA [D13A]: -0.162
TAGLGPLSFTLED [L2A]: 0.141
TLGLGPLAFTLED [S8A]: -0.261
TLGLGPLSFTLAD [E12A]: 0.0674
TLGLGPLSFALED [T10A]: 0.0396
TLGLAPLSFTLED [G5A]: 0.0263

Block 3 — method: RNA Bind-n-Seq; form: RNA; medium: in vitro; tested at: 20 nM; notes: 6-mer, flanks averaged, single round; added: 150 mM KCl; reference: input library; reading: higher = stronger binding; quantity: 6-mer enrichment (R)
Target: TAR DNA-binding protein 43, full length, His tag (TARDBP, Homo sapiens, UniProt Q13148, residues 1-414)
ACGGGG: 4.28
CGCACU: 0.652
AGAGCC: 0.828
UAAACA: 0.607
CCCUUA: 0.646
CAGGCA: 0.897
GGCGUA: 1.47
AGUCGC: 0.797
CUUUGC: 0.62
GGUAAC: 0.921
AUACAA: 0.651
GGUGUG: 3.42
GUAGUG: 1.53
UAGCCC: 0.648
ACUUUG: 0.634
UCCAAA: 0.6
CGGCGG: 3.43
UGUUGA: 0.826
GCUCAC: 0.659
CUAAUA: 0.708

Other studies, line by line
PhoQ, residues 284 288 289 292 302 303 SNGLAW
fold induction (PhoP, residues 12 14 15 18 19 LHTVM (Escherichia coli, UniProt P23836); Sort-seq, refers to: YFP reporter; E. coli; PhoQ-PhoP variant library, added: 10 µM Mg2+; reference: high Mg2+ state, higher = stronger signaling): 13.2
